Published values collected from several papers.
± gives the spread as reported.

SMILES = Cc1cc(-c2ccc(NC(=O)[C@H](CCCCNC(=O)CCOCCOCCC(=O)N[C@H](Cc3ccccc3)C(=O)N[C@H]3CSSC[C@@H](C(=O)N[C@H](C(=O)O)[C@@H](C)O)NC(=O)[C@H]([C@@H](C)O)NC(=O)[C@H](CCCCN)NC(=O)[C@@H](Cc4c[nH]c5ccccc45)NC(=O)[C@H](Cc4ccc(O)cc4)NC3=O)NC(=O)CN3CCN(CC(=O)O)CCN(CC(=O)O)CCN(CC(=O)O)CC3)c(C)c2)ccc1N=Nc1ccc2c(S(=O)(=O)O)cc(S(=O)(=O)O)c(N)c2c1O [lutetium-177 labelled]; test system = BALB/c nude mice, male, AR-42J tumour, spleen; conditions = intravenous, 1.48 MBq; tissue uptake = 5.56 ± 1.14 %ID/g
SMILES = CC(C)C[C@H](NC(=O)[C@H](Cc1ccc(O)cc1)NC(=O)[C@@H](CCCNC(=N)N)NC(=O)[C@@H](CO)NC(=O)[C@H](Cc1ccccc1)NC(=O)[C@H](CC1CCCCC1)NC(=O)[C@H](CC(=O)O)NC(=O)CN1CCCN2CCN(CCCN(CC(=O)O)CC2)CC1)C(=O)N[C@@H](Cc1c[nH]c2ccccc12)C(=O)N[C@@H](CO)C(=O)O [copper-64 labelled]; test system = female NMRI nude mice, tumor; conditions = 22 h p.i.; tissue uptake = 2.1 ± 0.3 %ID/g
SMILES = CN1C(=O)[C@@H](Cc2ccc(O)cc2)NC(=O)CNC(=O)[C@H](Cc2ccc3ccccc3c2)NC(=O)[C@H](CCCNC(=N)N)NC(=O)[C@H]1CCCNC(=O)c1ccc(CNC(=O)CN2CCN(CC(=O)O)CCN(CC(=O)O)CCN(CC(=O)O)CC2)cc1 [gallium-68 labelled]; test system = SCID mice, lymphoma xenograft, lungs; conditions = intravenous, 2 h; tissue uptake = 0.9 ± 0.2 %ID/g
SMILES = CSCC[C@H](NC(=O)[C@H](CC(C)C)NC(=O)[C@H](Cc1c[nH]cn1)NC(=O)CNC(=O)[C@@H](NC(=O)[C@H](C)NC(=O)[C@H](Cc1c[nH]c2ccccc12)NC(=O)[C@H](CCC(N)=O)NC(=O)CCOCCOCCOCCOCCNC(=O)CN1CCN(CC(=O)O)CCN(CC(=O)O)CCN(CC(=O)O)CC1)C(C)C)C(N)=O [indium-111 labelled]; test system = male Swiss nu/nu mice, PC-3 tumour, kidney; conditions = intravenous, 10 pmol, 1 h; tissue uptake = 2.7 ± 1 %ID/g
SMILES = CCCC[C@H](NC(=O)CCCCCCCNC(=O)CN1CCN(CC(=O)O)CCN(CC(=O)O)CC1)C(=O)N[C@H]1CC(=O)NCCCC[C@@H](C(N)=O)NC(=O)[C@H](Cc2c[nH]c3ccccc23)NC(=O)[C@H](CCCNC(=N)N)NC(=O)[C@@H](Cc2ccccc2)NC(=O)[C@H](Cc2c[nH]cn2)NC1=O [copper-64 labelled]; test system = C57 mice, heart; conditions = intravenous, 0.37 MBq, 24 h; tissue uptake = 0.22 ± 0.04 %ID/g
SMILES = CC(C)C[C@@H](NC(=O)[C@@H](CCC(=O)O)NC(=O)[C@@H](CC(C)C)NC(=O)[C@@H](CC(C)C)NC(=O)[C@@H](CC(C)C)NC(=O)[C@H](NC(=O)[C@@H](CCC(=O)O)NC(=O)[C@H](NC(=O)[C@H]1CCCN1C(=O)[C@@H](Cc1ccccc1)NC(=O)[C@@H](CC(C)C)NC(=O)[C@@H](Cc1c[nH]c2ccccc12)NC(=O)[C@@H](CCC(=O)O)NC(=O)[C@@H](CC(C)C)NC(=O)[C@@H](Cc1ccc(O)cc1)NC(=O)[C@@H](CCCNC(=N)N)NC(=O)[C@@H](C)NC(=O)[C@@H](Cc1c[nH]c2ccccc12)NC(=O)[C@H]1CCCN1C(=O)[C@@H](CC(N)=O)NC(=O)[C@@H](CCC(N)=O)NC(=O)[C@@H](CCC(=O)O)NC(=O)[C@@H](CCC(=O)O)NC(=O)[C@@H](CS)NC(=O)[C@@H](C)NC(=S)Nc1ccc(CC2CN(CC(=O)O)CCN(CC(=O)O)CCN2CC(=O)O)cc1)[C@H](C)O)[C@H](C)O)C(=O)O (some centres unmarked) [fluorine-18 labelled]; test system = BALB/c mice, female, 4T1 orthotopic tumour, large intestine; conditions = intravenous, 4 h; tissue uptake = 22.1 ± 6.02 %ID/g
SMILES = N=C(N)NCCC[C@@H]1NC(=O)[C@H](CCCCNC(=O)CN2CCN(CC(=O)O)CCN(CC(=O)O)CCN(CC(=O)O)CC2)NC(=O)[C@@H](Cc2ccc(O)cc2)NC(=O)[C@H](CC(=O)O)NC(=O)CNC1=O [copper-64 labelled]; assay = 64Cu microPET; test system = female nude mice, U-87 MG xenograft, liver; conditions = intravenous, 1 h; tissue uptake = 4.19 ± 0.78 %ID/g
SMILES = CC(C)C[C@@H](NC(=O)[C@@H](CC(C)C)NC(=O)[C@@H](CC(=O)O)NC(=O)[C@@H](CC(C)C)NC(=O)[C@@H](CC(C)C)NC(=O)[C@@H](CC(C)C)NC(=O)[C@H](NC(=O)[C@@H](CC(=O)O)NC(=O)[C@H](NC(=O)[C@H]1CCCN1C(=O)[C@@H](Cc1ccccc1)NC(=O)[C@@H](CC(C)C)NC(=O)[C@@H](CC(C)C)NC(=O)[C@@H](CC(=O)O)NC(=O)[C@@H](CC(C)C)NC(=O)[C@@H](Cc1ccc(O)cc1)NC(=O)[C@@H](C)NC(=O)[C@@H](CCCNC(=N)N)NC(=O)[C@@H](Cc1c[nH]c2ccccc12)NC(=O)[C@H]1CCCN1C(=O)[C@@H](CC(N)=O)NC(=O)[C@@H](CCC(N)=O)NC(=O)[C@@H](CC(=O)O)NC(=O)[C@@H](CC(=O)O)NC(=O)[C@@H](CS)NC(=O)[C@@H](C)NC(=S)Nc1ccc(CC2CN(CC(=O)O)CCN(CC(=O)O)CCN2CC(=O)O)cc1)[C@H](C)O)[C@H](C)O)C(=O)N[C@H](Cc1c[nH]c2ccccc12)C(=O)O (some centres unmarked) [fluorine-18 labelled]; test system = BALB/c mice, female, 4T1 orthotopic tumour, large intestine; conditions = intravenous, 4 h; tissue uptake = 22.1 ± 2.46 %ID/g
SMILES = CCCC[C@H](NC(=O)COCCOCCNC(=O)CN1CCN(CC(=O)O)CCN(CC(=O)O)CC1)C(=O)N[C@H]1CC(=O)NCCCC[C@@H](C(N)=O)NC(=O)[C@H](Cc2c[nH]c3ccccc23)NC(=O)[C@H](CCCNC(=N)N)NC(=O)[C@@H](Cc2ccccc2)NC(=O)[C@H](Cc2c[nH]cn2)NC1=O [copper-64 labelled]; test system = C57 mice, kidney; conditions = intravenous, 0.37 MBq, 4 h; tissue uptake = 3.27 ± 0.52 %ID/g
SMILES = N=C(N)NCCC[C@@H]1NC(=O)[C@H](CCCCNC(=O)CNC(=O)CNC(=O)CNC(=O)CC[C@H](NC(=O)CNC(=O)CNC(=O)CNC(=O)CN2CCN(CC(=O)O)CCN(CC(=O)O)CCN(CC(=O)O)CC2)C(=O)NCC(=O)NCC(=O)NCC(=O)NCCCC[C@@H]2NC(=O)[C@@H](Cc3ccccc3)NC(=O)[C@H](CC(=O)O)NC(=O)CNC(=O)[C@H](CCCNC(=N)N)NC2=O)NC(=O)[C@@H](Cc2ccccc2)NC(=O)[C@H](CC(=O)O)NC(=O)CNC1=O [indium-111 labelled]; test system = female athymic nu/nu mice, lungs; conditions = intravenous, 1 h; tissue uptake = 1.71 ± 0.48 %ID/g
SMILES = CCCC[C@H](NC(=O)CNC(=O)CNC(=O)CN1CCN(CC(=O)O)CCN(CC(=O)O)CC1)C(=O)N[C@H]1CC(=O)NCCCC[C@@H](C(N)=O)NC(=O)[C@H](Cc2c[nH]c3ccccc23)NC(=O)[C@H](CCCNC(=N)N)NC(=O)[C@@H](Cc2ccccc2)NC(=O)[C@H](Cc2c[nH]cn2)NC1=O [technetium-99m labelled]; test system = C57 mice, whole blood; conditions = intravenous, 0.037 MBq, 4 h; tissue uptake = 0.11 ± 0.06 %ID/g
SMILES = CC(C)C[C@H](NC(=O)CN1CCN(CC(=O)O)CCN(CC(=O)O)CC1)C(=O)N[C@@H](CC(C)C)C(=O)N[C@@H](CC(C)C)C(=O)N[C@@H](CC(C)C)C(=O)N[C@@H](CCCNC(=N)N)C(=O)N[C@H](C(=O)N[C@@H](CCCCN)C(=O)N[C@@H](CCCNC(=N)N)C(N)=O)C(C)C [copper-64 labelled]; test system = male Nu/Nu nude mice, LNCaP xenograft, LNCaP tumour; conditions = intravenous, 15 min; tissue uptake = 13 ± 2 %ID/g
SMILES = N=C(N)NCCC[C@@H]1NC(=O)[C@H](CCCCNC(=O)CNC(=O)CNC(=O)CNC(=O)CC[C@H](NC(=O)CNC(=O)CNC(=O)CNC(=O)CC[C@H](NC(=O)CN2CCN(CC(=O)O)CCN(CC(=O)O)CCN(CC(=O)O)CC2)C(=O)NCC(=O)NCC(=O)NCC(=O)N[C@@H](CCC(=O)NCC(=O)NCC(=O)NCC(=O)NCCCC[C@@H]2NC(=O)[C@@H](Cc3ccccc3)NC(=O)[C@H](CC(=O)O)NC(=O)CNC(=O)[C@H](CCCNC(=N)N)NC2=O)C(=O)NCC(=O)NCC(=O)NCC(=O)NCCCC[C@@H]2NC(=O)[C@@H](Cc3ccccc3)NC(=O)[C@H](CC(=O)O)NC(=O)CNC(=O)[C@H](CCCNC(=N)N)NC2=O)C(=O)NCC(=O)NCC(=O)NCC(=O)NCCCC[C@@H]2NC(=O)[C@@H](Cc3ccccc3)NC(=O)[C@H](CC(=O)O)NC(=O)CNC(=O)[C@H](CCCNC(=N)N)NC2=O)NC(=O)[C@@H](Cc2ccccc2)NC(=O)[C@H](CC(=O)O)NC(=O)CNC1=O [indium-111 labelled]; test system = female athymic nu/nu mice, blood; conditions = intravenous, 1 h; tissue uptake = 0.25 ± 0.04 %ID/g
SMILES = CC(C)C[C@@H](NC(=O)[C@@H](CCC(=O)O)NC(=O)[C@@H](CC(C)C)NC(=O)[C@@H](CC(C)C)NC(=O)[C@@H](CC(C)C)NC(=O)[C@H](NC(=O)[C@@H](CCC(=O)O)NC(=O)[C@H](NC(=O)[C@H]1CCCN1C(=O)[C@@H](Cc1ccccc1)NC(=O)[C@@H](CC(C)C)NC(=O)[C@@H](Cc1c[nH]c2ccccc12)NC(=O)[C@@H](CCC(=O)O)NC(=O)[C@@H](CC(C)C)NC(=O)[C@@H](Cc1ccc(O)cc1)NC(=O)[C@@H](CCCNC(=N)N)NC(=O)[C@@H](C)NC(=O)[C@@H](Cc1c[nH]c2ccccc12)NC(=O)[C@H]1CCCN1C(=O)[C@@H](CC(N)=O)NC(=O)[C@@H](CCC(N)=O)NC(=O)[C@@H](CCC(=O)O)NC(=O)[C@@H](CCC(=O)O)NC(=O)[C@@H](CSC1CC(=O)N(CCNC(=O)CN2CCN(CC(=O)O)CCN(CC(=O)O)CC2)C1=O)NC(=O)[C@@H](C)N)[C@H](C)O)[C@H](C)O)C(=O)O (some centres unmarked) [fluorine-18 labelled]; test system = BALB/c mice, female, 4T1 orthotopic tumour, small intestine; conditions = intravenous, 4 h; tissue uptake = 0.91 ± 0.03 %ID/g
